Measured values from different studies.
Organism: Escherichia coli

Structure (SMILES) | assay | system | setting | MIC
CC(C)C[C@H](NC(=O)[C@@H](NC(=O)[C@H](CCCCN)NC(=O)[C@H](CCCCN)NC(=O)[C@H](CC(C)C)NC(=O)[C@H](Cc1c[nH]c2ccccc12)NC(=O)[C@H](CCCCN)NC(=O)[C@H](Cc1c[nH]c2ccccc12)NC(=O)[C@H](CC(C)C)NC(=O)[C@H](CCCCN)NC(=O)[C@H](CCCCN)NC(=O)[C@@H](N)C(C)C)C(C)C)C(N)=O |  |  | 24 h, 37 °C, Mueller-Hinton broth, human serum 10% | 32 µM
CC[C@H](C)[C@H](NC(=O)[C@@H](CCCNC(=N)N)NC(=O)[C@H](CCCNC(=N)N)NC(=O)[C@H](Cc1c[nH]c2ccccc12)NC(=O)[C@H](Cc1c[nH]c2ccccc12)NC(=O)[C@H](CCCNC(=N)N)NC(=O)[C@@H]1CCCN1C(=O)[C@H](CCCNC(=N)N)NC(=O)[C@@H]1CCCN1C(=O)[C@H](CC(C)C)NC(=O)[C@H](Cc1ccc(O)cc1)NC(=O)[C@@H]1CCCN1C(=O)[C@@H]1CCCN1C(=O)[C@H](CCCCN)NC(=O)[C@H](CC(=O)O)NC(=O)[C@@H](N)C(C)C)C(=O)N[C@@H](Cc1ccc(O)cc1)C(=O)N[C@@H](CC(N)=O)C(=O)N[C@H](CCCNC(=N)N)C(N)=O | broth microdilution | ATCC 25922 | 18 h, 37 °C, 25% MHB2 | 8 µg/mL
CC[C@H](C)[C@H](NC(=O)[C@H](Cc1c[nH]c2ccccc12)NC(=O)[C@H](CCCCN)NC(=O)[C@H](CC(C)C)NC(=O)[C@@H](NC(=O)[C@@H](NC(=O)CNC(=O)[C@H](CCCCN)NC(=O)[C@H](Cc1c[nH]cn1)NC(=O)[C@H](CCCCN)NC(=O)[C@H](Cc1c[nH]c2ccccc12)NC(=O)[C@H](C)NC(=O)[C@H](CC(C)C)NC(=O)[C@H](CO)NC(=O)[C@@H](NC(=O)[C@H](Cc1ccc(O)cc1)NC(=O)[C@H](CCCCN)NC(=O)[C@H](CCC(N)=O)NC(=O)CNC(=O)[C@H](CCCCN)NC(=O)[C@@H](NC(=O)[C@H](C)NC(=O)[C@H](CC(C)C)NC(=O)[C@H](Cc1ccccc1)NC(=O)[C@H](CCC(N)=O)NC(=O)[C@@H](NC(=O)[C@H](CC(C)C)NC(=O)[C@H](CCCCN)NC(=O)[C@H](CCSC)NC(=O)[C@H](Cc1ccccc1)NC(=O)[C@H](C)NC(=O)[C@H](C)NC(=O)[C@@H](N)CCSC)[C@@H](C)CC)[C@@H](C)O)C(C)C)[C@@H](C)O)[C@@H](C)CC)C(=O)N[C@@H](CC(N)=O)C(N)=O | broth microdilution | ML35, smooth, full-length O-chains, Mueller Hinton broth | 24 h, 37 °C | 64 µg/mL
CC[C@H](C)[C@H](NC(=O)[C@@H](CCCNC(=N)N)NC(=O)[C@H](CCCNC(=N)N)NC(=O)[C@H](CCC(N)=O)NC(=O)[C@H](Cc1c[nH]c2ccccc12)NC(=O)[C@H](CCCNC(=N)N)NC(=O)[C@@H]1CCCN1C(=O)[C@H](CCCNC(=N)N)NC(=O)[C@@H]1CCCN1C(=O)[C@H](CC(C)C)NC(=O)[C@H](Cc1ccc(O)cc1)NC(=O)[C@@H]1CCCN1C(=O)[C@@H]1CCCN1C(=O)[C@H](CCCCN)NC(=O)[C@H](CC(=O)O)NC(=O)[C@@H](N)C(C)C)C(=O)N[C@@H](Cc1ccc(O)cc1)C(=O)N[C@@H](CC(N)=O)C(=O)N[C@H](CCCNC(=N)N)C(N)=O | broth microdilution | ATCC 25922 | 18 h, 37 °C, 25% MHB2 | 8 µg/mL
CC[C@H](C)[C@H](NC(=O)[C@@H](NC(=O)[C@H](CCCCN)NC(=O)[C@H](CCCCN)NC(=O)[C@@H](NC(=O)[C@H](Cc1c[nH]c2ccccc12)NC(=O)[C@H](CCCCN)NC(=O)[C@H](Cc1c[nH]c2ccccc12)NC(=O)[C@H](CC(C)C)NC(=O)[C@H](CCCCN)NC(=O)[C@H](CCCCN)NC(=O)[C@@H](N)C(C)C)[C@@H](C)CC)C(C)C)C(N)=O |  |  | 24 h, 37 °C, Mueller-Hinton broth, KCl 4.5 mM | 16 µM
CC[C@H](C)[C@H](NC(=O)[C@H](CCCNC(=N)N)NC(=O)[C@H](CO)NC(=O)[C@H](Cc1ccc(O)cc1)NC(=O)[C@@H](NC(=O)[C@@H](NC(=O)[C@H](C)NC(=O)CNC(=O)[C@H](CCCCN)NC(=O)[C@H](CCCCN)NC(=O)CCNC(=O)CCCCCNC(=O)[C@H](CCCNC(=N)N)NC(=O)CCCCCNC(=O)[C@H](CCCNC(=N)N)NC(=O)[C@H](CCCNC(=N)N)NC(=O)CCCCCNC(=O)[C@H](CCCNC(=N)N)NC(=O)[C@H](CCCNC(=N)N)NC(=O)CCCCCNC(=O)[C@H](CCCNC(=N)N)NC(=O)[C@H](CCCNC(=N)N)NC(=O)CCCCCNC(=O)[C@@H](N)CCCNC(=N)N)C(C)C)[C@@H](C)O)C(=O)N[C@@H](CO)C(=O)NCC(=O)N[C@@H](CCC(N)=O)C(=O)N[C@@H](Cc1ccc(O)cc1)C(=O)N[C@@H](CCCCN)C(=O)O |  | ATCC 25922, Mueller-Hinton broth | with: NH4Cl 6 µM | 6 µM
CC(=O)N[C@H](Cc1ccc(F)cc1)C(=O)N[C@@H](CCN)C(=O)N[C@H](C(=O)N[C@@H](CCN)C(=O)N[C@H]1CCNC(=O)[C@H]([C@@H](C)O)NC(=O)[C@H](CCN)NC(=O)[C@H](CCN)NC(=O)[C@H](CC(C)C)NC(=O)[C@@H](Cc2ccccc2)NC(=O)[C@H](CCN)NC1=O)[C@@H](C)O | broth microdilution | ATCC 25922, colistin-susceptible |  | 0.25 to 0.5 µg/mL
CN[C@@H]1[C@H](O)[C@H](NC)[C@H]2O[C@]3(O)[C@H](O[C@@H]2[C@H]1O)O[C@H](C)C[C@H]3NC(=O)Cc1ccccn1 | microbial growth, broth dilution | K12 |  | 200 µg/mL
CC[C@H](C)[C@H](NC(=O)[C@@H](CCCNC(=N)N)NC(=O)[C@H](CCCNC(=N)N)NC(=O)[C@@H]1CCCN1C(=O)[C@@H]1CCCN1C(=O)[C@H](CCCNC(=N)N)NC(=O)[C@@H]1CCCN1C(=O)[C@H](CCCNC(=N)N)NC(=O)[C@@H]1CCCN1C(=O)[C@H](CC(C)C)NC(=O)[C@H](Cc1ccc(O)cc1)NC(=O)[C@H](Cc1ccc(O)cc1)NC(=O)[C@@H]1CCCN1C(=O)[C@H](CCCCN)NC(=O)[C@H](CC(=O)O)NC(=O)[C@@H](N)C(C)C)C(=O)N[C@@H](Cc1ccc(O)cc1)C(=O)N[C@@H](CC(N)=O)C(=O)N[C@H](CCCNC(=N)N)C(N)=O | broth microdilution | BW25113 | 18 h, 37 °C, 25% MHB2 | 16 µg/mL
CC[C@H](C)[C@@H]1NC(=O)CNC(=O)[C@H](CCCCN)NC(=O)[C@H](Cc2ccc(O)cc2)NC(=O)[C@@H]2CSSC[C@H](NC1=O)C(=O)N[C@@H](Cc1ccc(O)cc1)C(=O)N[C@@H](CCCCN)C(=O)N[C@@H](CCCCN)C(=O)N[C@H](C(=O)N[C@@H](CCCCN)C(N)=O)CSSC[C@H](NC(=O)[C@H](Cc1c[nH]c3ccccc13)NC(=O)[C@@H](N)CCCCN)C(=O)N[C@@H](Cc1ccccc1)C(=O)N[C@@H](CCCCN)C(=O)N[C@@H](C(C)C)C(=O)N2 | broth dilution | K12 BW25113, Mueller-Hinton II broth | 18 h, 37 °C | 3.91 µg/mL
CSCC[C@H](NC=O)C(=O)N[C@@H](CCCNC(=N)N)C(=O)N[C@H](C(=O)NCC(=O)N[C@@H](CC(N)=O)C(=O)N[C@@H](C)C(=O)N[C@@H](CC(N)=O)C(=O)NCC(=O)N1CCN(c2cc3c(cc2F)c(=O)c(C(=O)O)cn3C2CC2)CC1)[C@@H](C)O | multistep resistance selection | K-12 MG1655 | day 4 | 3.12 µM
COc1c(NC(=O)/C(C)=C/c2ccc(O)cc2)ccc(C(=O)N[C@@H](CC#N)C(=O)Nc2ccc(C(=O)Nc3ccc(C(=O)Nc4ccc(C(=O)O)cc4)c(O)c3OC(C)C)c(O)c2OC)c1O |  |  |  | > 16 µg/mL
C=CCO/N=C(\C(=O)N[C@@H]1C(=O)N(OS(=O)(=O)O)C1(C)C)c1nsc(N)n1 | agar dilution | 08-85, mcr-1 |  | 2 µg/mL
CCn1c(-c2ccc(-c3ccc(F)cc3)cc2)c(-c2ccc(-c3ccc(F)cc3)cc2)n(CC)c1=[Se] | broth microdilution | carbapenem-resistant BAA-2140 | 24 h | > 40 µM
CCCCCCCC(=O)N[C@@H](CCN)C(=O)N[C@H](C(=O)N[C@@H](CCN)C(=O)N[C@H]1CCNC(=O)[C@H]([C@@H](C)O)NC(=O)[C@H](CCN)NC(=O)[C@H](CCN)NC(=O)[C@H](Cc2ccc(C(F)(F)F)cc2)NC(=O)[C@@H](CC(C)C)NC(=O)[C@H](CCN)NC1=O)[C@@H](C)O | broth microdilution | ATCC 25922, colistin-susceptible |  | 0.25 to 0.5 µg/mL
CC[C@H](C)[C@H](NC(=O)[C@H](CCCNC(=N)N)NC(=O)[C@H](CCCCN)NC(=O)[C@H](CC(C)C)NC(=O)[C@H](CC(C)C)NC(=O)CNC(=O)CCCCCNC(=O)CCCC[C@@H]1SC[C@@H]2NC(=O)N[C@@H]21)C(=O)N[C@@H](CCCCN)C(=O)N[C@H](C(=O)N[C@@H](CC(C)C)C(=O)N[C@@H](CC(C)C)C(=O)O)[C@@H](C)O | broth microdilution | M/14072, Mueller-Hinton broth |  | > 160 µM
CC[C@H](C)[C@H](NC(=O)[C@H](CCCNC(=N)N)NC(=O)[C@@H](NC(=O)[C@@H]1CCCN1C(=O)[C@H](CCCNC(=N)N)NC(=O)[C@@H](NC(=O)[C@@H]1CCCN1C(=O)[C@H](CC(C)C)NC(=O)[C@H](CC(C)C)NC(=O)CNC(=O)[C@H](Cc1c[nH]cn1)NC(=O)[C@@H]1CCCN1C(=O)CNC(=O)[C@H](Cc1ccccc1)NC(=O)[C@H](CC(=O)O)NC(=O)[C@H](Cc1c[nH]c2ccccc12)NC(=O)[C@H](C)NC(=O)[C@@H](NC(=O)[C@H](C)N)[C@@H](C)O)[C@@H](C)CC)[C@@H](C)CC)C(=O)N[C@@H](CCCNC(=N)N)C(=O)N1CCC[C@H]1C(=O)N[C@@H](CC(C)C)C(=O)N[C@@H](CS)C(=O)NCC(=O)N[C@@H](CCCCN)C(=O)N[C@@H](CC(=O)O)C(=O)O | broth microdilution | K88, Mueller-Hinton broth | 37 °C | 141 µg/mL
CC[C@H](C)[C@H](NC(=O)CNC(=O)[C@H](CCC(=O)O)NC(=O)[C@H](CO)NC(=O)[C@@H](NC(=O)[C@H](CCCNC(=N)N)NC(=O)[C@H](CCCCN)NC(=O)[C@H](CCCCN)NC(=O)[C@H](C)NC(=O)[C@H](CO)NC(=O)[C@H](CC(N)=O)NC(=O)[C@H](CCC(=O)O)NC(=O)[C@H](CC(C)C)NC(=O)[C@H](CCCCN)NC(=O)[C@H](CCCCN)NC(=O)[C@H](C)NC(=O)[C@@H](NC(=O)[C@H](CCCCN)NC(=O)[C@H](CO)NC(=O)[C@H](CC(C)C)NC(=O)[C@H](Cc1c[nH]c2ccccc12)NC(=O)[C@@H](N)CO)[C@@H](C)O)[C@@H](C)CC)C(=O)N[C@@H](C)C(=O)N[C@H](C(=O)N[C@@H](C)C(=O)N[C@H](C(=O)N[C@@H](CCC(N)=O)C(=O)NCC(=O)NCC(=O)N1CCC[C@H]1C(=O)N[C@@H](CCCNC(=N)N)C(=O)O)[C@@H](C)CC)[C@@H](C)CC |  | 25922, Mueller-Hinton broth | 18 to 24 h, 37 °C | 2 µg/mL
CC[C@H](C)[C@H](NC(=O)[C@@H](CCCNC(=N)N)NC(=O)[C@H](CCCNC(=N)N)NC(=O)[C@@H]1CCCN1C(=O)[C@@H]1CCCN1C(=O)[C@H](CCCNC(=N)N)NC(=O)[C@@H]1CCCN1C(=O)[C@H](CCCNC(=N)N)NC(=O)[C@@H]1CCCN1C(=O)[C@H](CC(C)C)NC(=O)[C@H](Cc1ccc(O)cc1)NC(=O)[C@@H]1CCCN1C(=O)[C@H](Cc1ccccc1)NC(=O)[C@H](CCCCN)NC(=O)[C@H](CC(=O)O)NC(=O)[C@@H](N)C(C)C)C(=O)N[C@@H](Cc1ccc(O)cc1)C(=O)N[C@@H](CC(N)=O)C(=O)N[C@H](CCCNC(=N)N)C(N)=O | broth microdilution | MC4100 | 18 h, 37 °C, 25% MHB2 | 16 µg/mL

Excerpt of the above:
Structure (SMILES) | assay | system | setting | MIC
CN[C@@H]1[C@H](O)[C@H](NC)[C@H]2O[C@]3(O)[C@H](O[C@@H]2[C@H]1O)O[C@H](C)C[C@H]3NC(=O)Cc1ccccn1 | microbial growth, broth dilution | K12 |  | 200 µg/mL
